Published values from different studies.
A part holds a random share of what one study measured.
Chain of UniProt P10721 (whole entry, unmodified, looked up): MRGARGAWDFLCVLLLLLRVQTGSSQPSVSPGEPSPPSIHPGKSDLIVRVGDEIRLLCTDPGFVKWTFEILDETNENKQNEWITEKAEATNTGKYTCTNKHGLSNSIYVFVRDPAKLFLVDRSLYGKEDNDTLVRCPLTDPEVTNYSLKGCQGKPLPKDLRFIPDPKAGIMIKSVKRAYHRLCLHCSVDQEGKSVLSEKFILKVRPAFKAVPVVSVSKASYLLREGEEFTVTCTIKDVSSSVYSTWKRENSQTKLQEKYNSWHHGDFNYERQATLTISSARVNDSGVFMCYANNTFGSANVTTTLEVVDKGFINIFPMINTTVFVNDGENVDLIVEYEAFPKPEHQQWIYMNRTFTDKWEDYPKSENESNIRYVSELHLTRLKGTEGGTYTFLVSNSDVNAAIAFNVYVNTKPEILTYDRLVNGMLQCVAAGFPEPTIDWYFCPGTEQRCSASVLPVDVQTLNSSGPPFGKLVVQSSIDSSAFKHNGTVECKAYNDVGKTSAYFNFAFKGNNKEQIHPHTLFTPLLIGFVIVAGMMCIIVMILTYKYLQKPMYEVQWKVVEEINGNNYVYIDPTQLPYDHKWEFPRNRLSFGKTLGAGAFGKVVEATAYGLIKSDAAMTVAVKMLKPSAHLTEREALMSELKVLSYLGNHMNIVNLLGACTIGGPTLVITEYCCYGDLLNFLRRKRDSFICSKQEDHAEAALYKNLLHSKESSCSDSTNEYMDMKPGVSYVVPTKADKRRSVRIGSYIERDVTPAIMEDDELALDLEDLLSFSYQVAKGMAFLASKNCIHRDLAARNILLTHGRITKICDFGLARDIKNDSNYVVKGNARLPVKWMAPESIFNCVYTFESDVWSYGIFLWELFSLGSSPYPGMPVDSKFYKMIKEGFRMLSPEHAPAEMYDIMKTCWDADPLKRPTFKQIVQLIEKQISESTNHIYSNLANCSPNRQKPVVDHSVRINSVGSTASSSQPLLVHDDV
Chain of UniProt P42336 (whole entry, unmodified, looked up): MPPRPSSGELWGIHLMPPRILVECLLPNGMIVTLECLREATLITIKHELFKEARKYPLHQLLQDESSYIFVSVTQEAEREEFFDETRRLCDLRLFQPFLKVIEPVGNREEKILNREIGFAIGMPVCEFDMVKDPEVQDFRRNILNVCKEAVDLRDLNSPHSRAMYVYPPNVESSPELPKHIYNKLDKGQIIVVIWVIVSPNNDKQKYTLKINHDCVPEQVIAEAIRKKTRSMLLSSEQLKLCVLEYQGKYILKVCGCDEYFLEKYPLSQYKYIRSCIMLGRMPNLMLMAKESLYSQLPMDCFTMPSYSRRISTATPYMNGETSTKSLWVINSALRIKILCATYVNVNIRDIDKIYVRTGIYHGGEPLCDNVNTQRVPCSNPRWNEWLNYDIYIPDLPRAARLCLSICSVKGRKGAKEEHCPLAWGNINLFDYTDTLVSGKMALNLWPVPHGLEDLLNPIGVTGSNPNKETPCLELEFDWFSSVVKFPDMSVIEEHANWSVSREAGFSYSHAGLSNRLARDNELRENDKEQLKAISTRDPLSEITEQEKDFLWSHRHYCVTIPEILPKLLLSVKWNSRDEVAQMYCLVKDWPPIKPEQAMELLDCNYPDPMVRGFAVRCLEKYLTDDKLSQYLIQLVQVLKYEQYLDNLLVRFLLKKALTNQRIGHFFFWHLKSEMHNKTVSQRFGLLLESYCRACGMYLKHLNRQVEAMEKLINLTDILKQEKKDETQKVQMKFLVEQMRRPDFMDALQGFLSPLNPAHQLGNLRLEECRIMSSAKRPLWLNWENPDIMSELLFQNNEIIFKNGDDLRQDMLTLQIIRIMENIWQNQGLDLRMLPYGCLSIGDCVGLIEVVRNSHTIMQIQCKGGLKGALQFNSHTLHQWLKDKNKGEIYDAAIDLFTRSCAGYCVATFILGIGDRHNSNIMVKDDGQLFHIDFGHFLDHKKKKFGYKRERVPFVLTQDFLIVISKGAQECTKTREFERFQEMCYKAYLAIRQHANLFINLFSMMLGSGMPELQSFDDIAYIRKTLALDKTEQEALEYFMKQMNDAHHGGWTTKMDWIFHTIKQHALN
Chain of UniProt O00329 (whole entry, looked up): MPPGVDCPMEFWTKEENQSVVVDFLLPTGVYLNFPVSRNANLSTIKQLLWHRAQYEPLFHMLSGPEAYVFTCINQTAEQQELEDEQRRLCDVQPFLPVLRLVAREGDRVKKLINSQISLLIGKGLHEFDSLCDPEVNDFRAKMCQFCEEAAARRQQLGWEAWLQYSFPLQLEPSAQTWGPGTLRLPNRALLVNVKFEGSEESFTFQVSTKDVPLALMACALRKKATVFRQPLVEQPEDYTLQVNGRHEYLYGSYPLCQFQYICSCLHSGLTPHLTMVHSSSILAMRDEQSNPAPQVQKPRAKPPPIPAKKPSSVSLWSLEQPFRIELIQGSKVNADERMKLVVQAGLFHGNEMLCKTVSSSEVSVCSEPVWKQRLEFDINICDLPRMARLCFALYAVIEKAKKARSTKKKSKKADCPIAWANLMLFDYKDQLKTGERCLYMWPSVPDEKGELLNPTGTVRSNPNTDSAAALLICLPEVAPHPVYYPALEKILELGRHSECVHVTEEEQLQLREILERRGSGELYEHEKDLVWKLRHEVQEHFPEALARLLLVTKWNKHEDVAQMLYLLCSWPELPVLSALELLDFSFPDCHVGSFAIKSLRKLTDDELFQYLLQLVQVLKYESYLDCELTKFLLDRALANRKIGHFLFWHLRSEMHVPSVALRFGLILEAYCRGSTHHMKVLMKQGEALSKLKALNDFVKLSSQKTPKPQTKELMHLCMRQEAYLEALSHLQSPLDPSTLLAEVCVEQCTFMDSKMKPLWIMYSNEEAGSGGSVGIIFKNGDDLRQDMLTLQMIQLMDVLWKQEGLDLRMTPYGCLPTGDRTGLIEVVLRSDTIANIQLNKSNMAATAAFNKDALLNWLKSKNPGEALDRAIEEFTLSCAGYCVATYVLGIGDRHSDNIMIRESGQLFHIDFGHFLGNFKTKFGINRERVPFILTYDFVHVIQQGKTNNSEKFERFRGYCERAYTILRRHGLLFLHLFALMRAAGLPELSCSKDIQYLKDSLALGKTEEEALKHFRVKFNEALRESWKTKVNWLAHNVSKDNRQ
Chain of UniProt Q9UQM7 (whole entry, looked up): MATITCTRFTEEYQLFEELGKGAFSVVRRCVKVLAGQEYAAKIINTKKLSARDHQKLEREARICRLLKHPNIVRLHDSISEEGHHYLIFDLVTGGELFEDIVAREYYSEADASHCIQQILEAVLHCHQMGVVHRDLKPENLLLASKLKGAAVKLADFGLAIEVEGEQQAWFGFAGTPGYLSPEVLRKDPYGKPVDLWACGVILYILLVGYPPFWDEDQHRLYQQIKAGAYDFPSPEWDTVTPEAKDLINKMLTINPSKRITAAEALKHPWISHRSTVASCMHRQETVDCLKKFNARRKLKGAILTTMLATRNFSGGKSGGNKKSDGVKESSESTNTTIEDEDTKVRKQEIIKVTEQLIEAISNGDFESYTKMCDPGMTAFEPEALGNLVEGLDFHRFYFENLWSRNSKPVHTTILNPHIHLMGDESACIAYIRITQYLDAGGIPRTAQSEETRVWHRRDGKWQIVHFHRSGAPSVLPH
Chain of UniProt O75676 (whole entry, looked up): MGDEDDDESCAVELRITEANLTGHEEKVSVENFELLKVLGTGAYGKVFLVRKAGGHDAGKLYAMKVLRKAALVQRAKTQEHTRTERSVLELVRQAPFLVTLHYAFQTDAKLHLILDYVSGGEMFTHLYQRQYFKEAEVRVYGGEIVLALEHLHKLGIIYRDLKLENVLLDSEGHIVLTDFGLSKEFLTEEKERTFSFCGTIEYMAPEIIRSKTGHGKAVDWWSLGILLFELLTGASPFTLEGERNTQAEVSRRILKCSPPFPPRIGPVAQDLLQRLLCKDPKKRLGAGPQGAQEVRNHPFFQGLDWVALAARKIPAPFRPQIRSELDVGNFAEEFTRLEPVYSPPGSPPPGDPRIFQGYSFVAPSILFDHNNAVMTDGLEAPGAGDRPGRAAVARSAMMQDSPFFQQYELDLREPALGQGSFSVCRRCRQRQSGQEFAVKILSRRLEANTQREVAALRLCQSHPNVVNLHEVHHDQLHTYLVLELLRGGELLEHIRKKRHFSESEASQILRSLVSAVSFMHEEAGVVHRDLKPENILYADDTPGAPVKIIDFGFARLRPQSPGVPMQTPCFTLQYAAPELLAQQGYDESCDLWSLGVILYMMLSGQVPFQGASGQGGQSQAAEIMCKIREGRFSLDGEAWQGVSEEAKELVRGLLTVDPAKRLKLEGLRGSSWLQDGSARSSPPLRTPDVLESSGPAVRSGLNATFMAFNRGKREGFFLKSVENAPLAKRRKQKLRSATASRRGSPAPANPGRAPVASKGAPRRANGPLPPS
Chain of UniProt P48729 (whole entry, looked up): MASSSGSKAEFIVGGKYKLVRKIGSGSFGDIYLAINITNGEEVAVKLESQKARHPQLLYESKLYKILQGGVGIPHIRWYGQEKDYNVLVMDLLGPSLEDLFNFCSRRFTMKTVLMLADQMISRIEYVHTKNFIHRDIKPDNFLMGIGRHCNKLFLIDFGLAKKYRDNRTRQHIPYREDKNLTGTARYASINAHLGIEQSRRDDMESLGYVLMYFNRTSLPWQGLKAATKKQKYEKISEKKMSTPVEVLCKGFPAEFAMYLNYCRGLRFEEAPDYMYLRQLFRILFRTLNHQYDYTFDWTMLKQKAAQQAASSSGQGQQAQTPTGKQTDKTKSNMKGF

Block 1
Cell line: 1205 Lu melanoma cells
With CC(C)c1ccc2c(c1)CC[C@H]1[C@](C)(CN)CCC[C@]21C the IC50 was 2.5 µM.
OCCOCCN1CCN(C(c2ccccc2)c2ccc(Cl)cc2)CC1 (stereo not shown) gave an IC50 of 62.7 µM.
For Clc1ccccc1CNCC1CCC(CNCc2ccccc2Cl)CC1 (stereo not shown), the IC50 was 11.4 µM.

Block 2
Compound: CN(C)CC#Cc1ccc(OCCCc2sc(N3CCc4cccc(C(=O)Nc5nc6ccccc6s5)c4C3)nc2C(=O)O)c(F)c1
Effect on: cell-free assay
Method: competition with immobilised ligand
Concentration: 1 µM
The remaining binding was 100% (Ephrin type-B receptor 1 (EPHB1, Homo sapiens, UniProt P54762)).
For TRAF2 and NCK-interacting protein kinase (TNIK, Homo sapiens, UniProt Q9UKE5): remaining binding read 83%.
It gave 100% for remaining binding (SNF-related serine/threonine-protein kinase (SNRK, Homo sapiens, UniProt Q9NRH2)).
It gave 100% for remaining binding (Mitogen-activated protein kinase kinase kinase 11 (MAP3K11, Homo sapiens, UniProt Q16584)).
For Uncharacterized serine/threonine-protein kinase SBK3 (SBK3, Homo sapiens, UniProt P0C264): remaining binding read 100%.
It gave 100% for remaining binding (Mitogen-activated protein kinase kinase kinase 14 (MAP3K14, Homo sapiens, UniProt Q99558)).
Mast/stem cell growth factor receptor Kit (KIT, Homo sapiens, UniProt P10721, L576P) — remaining binding: 95%.
It gave 71% for remaining binding (Casein kinase I isoform alpha (CSNK1A1, Homo sapiens, UniProt P48729)).
It gave 100% for remaining binding (Phosphatidylinositol 4-phosphate 3-kinase C2 domain-containing subunit beta (PIK3C2B, Homo sapiens, UniProt O00750)).
It gave 96% for remaining binding (Ribosomal protein S6 kinase alpha-4, C-terminal kinase domain (RPS6KA4, Homo sapiens, UniProt O75676)).
It gave 100% for remaining binding (Phosphatidylinositol 4,5-bisphosphate 3-kinase catalytic subunit delta isoform (PIK3CD, Homo sapiens, UniProt O00329)).
For Homeodomain-interacting protein kinase 1 (HIPK1, Homo sapiens, UniProt Q86Z02): remaining binding read 75%.
For Serine/threonine-protein kinase N1 (PKN1, Homo sapiens, UniProt Q16512): remaining binding read 91%.
It gave 87% for remaining binding (Serine/threonine-protein kinase Nek10 (NEK10, Homo sapiens, UniProt Q6ZWH5)).
Phosphatidylinositol 4,5-bisphosphate 3-kinase catalytic subunit alpha isoform (PIK3CA, Homo sapiens, UniProt P42336, H1047Y) — remaining binding: 100%.
Serine/threonine-protein kinase BRSK1 (BRSK1, Homo sapiens, UniProt Q8TDC3) — remaining binding: 100%.
Mast/stem cell growth factor receptor Kit (KIT, Homo sapiens, UniProt P10721, A829P) — remaining binding: 100%.
Tyrosine-protein kinase ABL1, phosphorylated (ABL1, Homo sapiens, UniProt P00519, Q252H) — remaining binding: 94%.
It gave 88% for remaining binding (Serine/threonine-protein kinase 3 (STK3, Homo sapiens, UniProt Q13188)).
The remaining binding was 100% (Homeodomain-interacting protein kinase 2 (HIPK2, Homo sapiens, UniProt Q9H2X6)).
For Citron Rho-interacting kinase (CIT, Homo sapiens, UniProt O14578): remaining binding read 77%.
Epidermal growth factor receptor (EGFR, Homo sapiens, UniProt P00533, G719S) — remaining binding: 100%.
Calcium/calmodulin-dependent protein kinase type II subunit alpha (CAMK2A, Homo sapiens, UniProt Q9UQM7) — remaining binding: 64%.

Block 3
SMILES: CC#CC(=O)N1CCC[C@H]1c1nc(-c2ccc(C(=O)Nc3ccccn3)cc2)c2c(N)nccn12
Mode: inhibitor
Concentration: 1 µM
The inhibition was 2% (Tyrosine-protein kinase JAK1, JH1 kinase domain (JAK1, Homo sapiens, UniProt P23458)).
The inhibition was 20% (Phosphatidylinositol 4,5-bisphosphate 3-kinase catalytic subunit alpha isoform (PIK3CA, Homo sapiens, UniProt P42336, H1047L); enzyme activity).
The inhibition was 0% (Calcium/calmodulin-dependent protein kinase type II subunit beta (CAMK2B, Homo sapiens, UniProt Q13554); enzyme activity).
It gave 26% for inhibition (Microtubule-associated serine/threonine-protein kinase 1 (MAST1, Homo sapiens, UniProt Q9Y2H9); enzyme activity).
The inhibition was 19% (Tyrosine-protein kinase ABL1, phosphorylated (ABL1, Homo sapiens, UniProt P00519, H396P); enzyme activity).
The inhibition was 6% (MAP/microtubule affinity-regulating kinase 4 (MARK4, Homo sapiens, UniProt Q96L34); enzyme activity).
It gave 2% for inhibition (Ribosomal protein S6 kinase alpha-6, C-terminal kinase domain (RPS6KA6, Homo sapiens, UniProt Q9UK32)).
For Receptor-type tyrosine-protein kinase FLT3, autoinhibited (FLT3, Homo sapiens, UniProt P36888); enzyme activity: inhibition read 5%.
Phosphatidylinositol 4,5-bisphosphate 3-kinase catalytic subunit delta isoform (PIK3CD, Homo sapiens, UniProt O00329); enzyme activity — inhibition: 12%.

Block 4
Target: Casein kinase II subunit alpha' (CSNK2A2, Homo sapiens, UniProt P19784)
Chain of UniProt P19784 (whole entry, looked up): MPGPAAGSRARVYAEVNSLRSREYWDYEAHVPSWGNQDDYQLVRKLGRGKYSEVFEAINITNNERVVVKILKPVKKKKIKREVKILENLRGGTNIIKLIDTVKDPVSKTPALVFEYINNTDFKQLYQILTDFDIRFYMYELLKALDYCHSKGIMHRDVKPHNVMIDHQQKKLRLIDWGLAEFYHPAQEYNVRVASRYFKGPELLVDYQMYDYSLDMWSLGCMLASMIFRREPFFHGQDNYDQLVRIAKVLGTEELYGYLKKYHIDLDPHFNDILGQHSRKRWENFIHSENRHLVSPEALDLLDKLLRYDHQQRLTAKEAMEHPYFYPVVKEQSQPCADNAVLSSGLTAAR
Effect on: enzyme activity
Mode: inhibitor
Concentration: 0.5 µM
Reference: control
CCN(CC)CCNC(=O)c1c(C)[nH]c(/C=C2\C(=O)Nc3ccc(F)cc32)c1C has a remaining activity of 92.2%.
CN(C)C[C@H]1CCn2c(c(C3=C(c4cn(C)c5ccccc45)C(=O)NC3=O)c3ccccc32)C1 has a remaining activity of 92.4%.
The remaining activity of O=C1C(Cl)=C(N2C(=O)CCC2=O)C(=O)c2ccccc21 is reported as 100%.
The remaining activity of Cc1cn(-c2cc(NC(=O)c3ccc(C)c(Nc4nccc(-c5cccnc5)n4)c3)cc(C(F)(F)F)c2)cn1 is reported as 106%.
With Nc1cccc(-c2cc3c(Oc4cccc(O)c4)ncnc3[nH]2)c1 the remaining activity was 96.5%.
For C[C@@H]1CCN(C(=O)CC#N)C[C@@H]1N(C)c1ncnc2[nH]ccc12, the remaining activity was 96.6%.
With COc1cc2ncnc(Nc3cccc(Cl)c3)c2cc1OC the remaining activity was 92.3%.
The remaining activity of c1ccc(-c2cnc(Nc3ccc(OCCN4CCCC4)cc3)s2)cc1 is reported as 92.1%.
With Ic1cccc(CSc2nnc(-c3ccncc3)o2)c1 the remaining activity was 81%.
The remaining activity of CCN(CC)C(=O)c1ccc(Nc2nc(OCC3CCCCC3)c3[nH]cnc3n2)cc1 is reported as 90.9%.
CCN(CC)CCNC(=O)c1c(C)[nH]c(/C=C2\C(=O)Nc3ccc(Cl)cc32)c1C gave a remaining activity of 64.3%.
Cc1nc2cc3nc(-c4cccs4)cnc3cc2n1C gave a remaining activity of 99%.
N#C/C(=C\c1ccc(O)c(O)c1)C(=O)NCc1ccccc1 gave a remaining activity of 81.9%.
For COc1cc2ncnc(Nc3ccc(O)c(Br)c3)c2cc1OC, the remaining activity was 89.2%.
For Cc1cc2ncc(-c3ccccc3)nc2cc1C, the remaining activity was 90.3%.
c1ccc(-c2[nH]ncc2-c2ccnc3ccccc23)nc1 gave a remaining activity of 96.7%.
CCOc1nc(NC(=O)Cc2cc(OC)ccc2OC)cc(N)c1C#N gave a remaining activity of 106%.
The remaining activity of O=C(Nc1cccc(Nc2nccc(Nc3cccc(C(F)(F)F)c3)n2)c1)C1CC1 is reported as 95.4%.
With CN([C@@H](Cc1ccc(OS(=O)(=O)c2cccc3cnccc23)cc1)C(=O)N1CCN(c2ccccc2)CC1)S(=O)(=O)c1cccc2cnccc12 the remaining activity was 121%.
The remaining activity of COc1cc2c(cc1OC)-c1[nH]nc(Nc3cccc(F)c3)c1C2 is reported as 105%.
O=c1cc(-c2cccc3c2Sc2ccccc2S3)oc(N2CCOCC2)c1 has a remaining activity of 96%.
For O=C1c2ccccc2-c2n[nH]c3cccc1c23, the remaining activity was 89.2%.
With Cn1nc2c3c(cccc31)C(=O)c1ccccc1-2 the remaining activity was 86.6%.
